Experimental data of several laboratories.
Every numbered part comes from another study and shows a few of its results, in no order.

Study 1 — method: protein binding microarray; molecule type: double-stranded DNA, one strand shown; sample: in vitro; tested at: not given; relative to: not given; direction: higher = stronger binding; quantity: E-score
Target: Histone acetyltransferase KAT6A, winged helix 1, GST fusion (KAT6A, Homo sapiens, UniProt Q92794, residues 1-85)
Notes: 8-mer, flanks averaged, mean of 2 arrays, mostly near background
Residues (chain): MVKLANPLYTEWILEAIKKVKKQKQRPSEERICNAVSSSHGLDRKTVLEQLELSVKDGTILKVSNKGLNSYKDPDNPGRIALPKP
ACGCTAAC: 0.163
GGAGCACA: -0.148
ATGTTTGA: -0.323
ACAACCGA: -0.125
ATGATTCA: -0.149
CGACTCGA: -0.139
GGACAGTA: -0.013
CGTAGTCA: -0.0763
ACATCTAC: -0.124
CTACTCCA: -0.0905
AATCTGTC: -0.16
CCCGGCAC: 0.242
GACCATTA: -0.0428
GGCTTTCA: -0.0528
GTCAACTA: -0.208
CCTAAAGC: -0.0364
CACAAGGG: -0.201
ACCACCGG: 0.257
AGCAACGA: -0.189
AGATTAGA: -0.194
CAGGATAC: -0.104
CTAGCACA: -0.0331
AGCTCCTG: -0.178
CTGGCGGC: 0.341
TGGCCCCA: -0.258

Study 2 — method: protein-binding microarray; molecule type: double-stranded DNA, one strand shown; sample: in vitro; tested at: 250 nM; notes: 60-bp whole probe; with: salmon DNA 0.4 mg/ml; relative to: random background probes; direction: higher = stronger binding; quantity: log fluorescence; shared flanks, not repeated: GCCTAGCAC … GTCTTGATTCGCTTGACGCTGCTG
Target: Interferon regulatory factor 5, full length, phosphomimetic (IRF5, Homo sapiens, UniProt Q13568-2, residues 1-514, K96S/S451D/S453D/S456D/S462D)
GACGGTCTCCTACTGCTGGCGTGCTAG: -0.609 z-score
TCACCTTTCAATCCTAGACTGTGCTAG: 1.24 z-score
TAAGATATCGGGTATCGATTAGTGCTA: 5.02 z-score
GACTGTATCGACTTTCGGGACGTGCTA: 6.8 z-score
GGCAGCCTCTGCATTCCCTCAGTGCTA: -0.923 z-score
TCATGCCTATTTTTCCCACTGTGCTAG: 0.371 z-score
CTCTGCTTGTATCTGGGTTCGTGCTAG: 0.0267 z-score
GATGGTATCGGTTTCGGGACGTGCTAG: 9.02 z-score
TTGGGTCTGGGTATTTTTCTGTGCTAG: 0.0163 z-score
CTTCCCCTCTCTTTCCAACTGTGCTAG: 0.3 z-score
GACGGTAGCCTTATCCTGACGTGCTAG: -0.231 z-score
TTAAATTTCGGGTATCGATTAGTGCTA: 8.46 z-score
TTAGGTGCCGGTTTCGGTTAGTGCTAG: 8.39 z-score
TATTGTTTCCTTCCTCTTTTGTGCTAG: 2.47 z-score
TTAGATATCGGCTATCGATTAGTGCTA: 5.49 z-score
TCACTTTTCACTTTCTTACTGTGCTAG: 3.36 z-score
TTAGAACTGGGGAGTGGATTAGTGCTA: -0.372 z-score
CTGGCTATTTTATATGCTATGGTGCTA: -0.188 z-score
GGCGATTTCAGTTCCGAGACGTGCTAG: 1.24 z-score
GACGGTTGCCTTATCCTGACGTGCTAG: -0.101 z-score
GACGGTTCTCTTTTCCTGACGTGCTAG: 0.185 z-score
TTAGGTTTCCTTTCTCTTTAGTGCTAG: 3 z-score
TTACGTTTCGACTTTCGGTTAGTGCTA: 10.7 z-score

Study 3 — method: RNA Bind-n-Seq; molecule type: RNA; sample: in vitro; tested at: 365 nM; relative to: no-protein control; direction: higher = stronger binding; quantity: RBNS enrichment (R)
Target: RNA binding protein fox-1 homolog 2, RRM domain, GST-SBP tag (RBFOX2, Homo sapiens, UniProt O43251-10, residues 100-194)
Notes: natural RNA segment, single round, ends assumed
Shared flanks, not repeated: GGGAGUUCUACAGUCCGACGAUC … UGGAAUUCUCGGGUGCCAA
Construct (chain): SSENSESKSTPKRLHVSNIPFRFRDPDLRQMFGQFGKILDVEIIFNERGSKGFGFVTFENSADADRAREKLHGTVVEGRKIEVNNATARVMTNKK
UGGUUCUCUCAGGGCUUCGCCUUCAAGGGUUCUGGAGGAGGGAAGGGUCUGCAGGUUCCAUGGGUGACAGCCUGAGAUCUGUCCCUUCAACGGGCUGGGCUGGGUAUGUG: 1.5
GUUGUCAUUCUUAGGAAUUUGGUUUGAAAUUUAUCAGUUAUACAGAAUUGUCAUACUGCAUUAGCUUCUACCUUUAGUAAGACAUAUUUUUUAGGUAUAAAUUCUUAUGC: 0.924
GCAUUCUACUGAAGAAAAUUUUGUAGCAAAAGAUUAGAACAGUAAGAAUAGUAUGCCAGCAAUCCCUGAUUCUCUCUCUGCUUGGUGUUCUCUGGCAGCACUAAGACAAA: 0.452
GCUAAACAAUAAAUGUACCUGUCUCAGUCCGCUGGACUGAGUUGUUUUGAAGGUUCUCAUGGUGCACAGCAGUGUGUAUGUGGUGUACAACAGUGUGUAUGCAGCCGUGC: 0.477
UCUCUCAUUGCCGCUGCCACUAUCACCUGUCUCUCUGCCAGCUGAUGUGCCCUGUUGCCCCCCACCCCAUCCCGCACAGAACCAUCCCUGCAUUCCACAGGGGACUCGGG: 0.458
CAAGUUCCUCCAGUUGCCCUUGUCCUCAGGUGCAGUGGGACUGUUGUGAGCCCCAGGGAUGGGCACAAAGAGGACUUUUAUUUUGUUAGCUCGGACAGUGCAGUGGUGCA: 2.23
CUGGGUUGCCGCGGCAGCAGUGGUCUGUUUGAUGCUGCCGUUUGCCGCUGCCGGCCCCUCCUCAGACUCCGCCUUUGGGAGCACACCUGCUUUGCCUUGCUGCCUGUGCA: 4.94
GUCUAGAGGAAUUUUUGUUUCCUUGAUUAACAUGAUUUUCCUGGUUGUUACAUCCAGGGCAUGGCAGUGGCCUCAGCCUUAAACUUUUGUUCCUACUCCCACCCUCAGCG: 0.321
UAAAUUUGGAGAUACGUAAAGCCUUGUUUUCUCUGUGUGGUUCAGCUACUUUCCAUUUGGUAUUACACAGUCAAAUUUACAUUUAUCUAUUAAAAUUGCCAUUUUAUUAA: 8.07
CAGGCAUACUCCUGCUUAGGAUAACCAUUUGCUGGUCUUCAUUCAAUUCUUUCUCUCUUUUUAUUACUAAACAGUUUUACAUAACACUGUUUAUUUAAGAAACAUAUCUC: 0.596
ACGCCCCGUCAACCACAAUCAAGAACUGAGGCCUGAGGCUGGUUGUACAAUGCCCACGCCUGCCUGGCUGCUUUCACCUGGGAGUGCUUUCGAUGUGGGCACCUGGGCUU: 0.465
AGUAAUAACAAUGGGACUUAGAGGAGGUAAACAUAACUUAUGUGCCUCAAACCAGCUAGUCCUGGACAAGAUGUCUCUUCAGUAUCUCUGCUAUUGGGUUCAGAUGUGUC: 0.307

Study 4 — method: protein-binding microarray; molecule type: double-stranded DNA, one strand shown; sample: in vitro; tested at: 0.8 µM; notes: whole 60-bp probe, no competitor; direction: higher = stronger binding; quantity: fluorescence intensity; shared flanks, not repeated: … GTCTTGATTCGCTTGACGCTGCTG
Target: Centromere-binding protein 1, full length, N-terminal tag (CBF1, Saccharomyces cerevisiae, UniProt P17106, residues 1-351)
Chain of UniProt P17106 (whole entry, looked up): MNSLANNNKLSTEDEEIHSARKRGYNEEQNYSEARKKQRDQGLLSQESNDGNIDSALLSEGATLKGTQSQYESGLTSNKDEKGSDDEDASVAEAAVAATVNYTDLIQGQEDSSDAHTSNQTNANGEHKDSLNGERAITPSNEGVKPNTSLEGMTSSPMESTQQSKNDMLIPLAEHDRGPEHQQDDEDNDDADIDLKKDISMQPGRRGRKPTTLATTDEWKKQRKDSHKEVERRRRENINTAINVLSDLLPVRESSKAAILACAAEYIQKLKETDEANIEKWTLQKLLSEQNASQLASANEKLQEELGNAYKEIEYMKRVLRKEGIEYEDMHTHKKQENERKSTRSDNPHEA
GAATCGATGAACAAGCACGTTATTTCTTAAACGTAG: 851 a.u.
GAATTGGTGCCGTACGGGCACGTGTATTATTTTTAG: 6480 a.u.
GAAATTGAAACACTTGCCGTGATCAAGATTATATAG: 771 a.u.
GAAGTGGGTGTGGGTGTGGTGTGGGTGTGTGGGTAG: 535 a.u.
GAAGTACATATACCTCACCTGAGTTTTGCTTTTTAG: 493 a.u.
CTATAAATACTAAATGGTCATGAGGAAAGAAAATTC: 975 a.u.
GAATTTCATTATTGGCACGAGTAGCAGTCGTTGTAG: 655 a.u.
CTATGTGGAGCAAGCCACGCCATGTGATTAACCTTC: 2950 a.u.
CTATGACTAGAGAATCACCTTTTTAGCGAAATATTC: 551 a.u.
GAATCGGTGCATTGGCATGCGCAAGCATTCGATTAG: 497 a.u.
GAATCTCTTAGGTTACACGCAACTAAACTTTTTTAG: 518 a.u.
CTACCTTACGTCGGTGACGACGATATACAGATCTTC: 475 a.u.
CTAAGGAAGAAGCAACGCACGCATGGAAAACACTTC: 541 a.u.
GAATCTTCCATTAGCAGCATGATCTTGTGTAGATAG: 582 a.u.
CTATAGATTTTGGAGCAACTGATGTGTGTGAGTTTC: 516 a.u.
CTATGGAACCACTATCATCAGAATTATCGCCAATTC: 509 a.u.
GAAGAACTATTATTTCATCATATGAAAGATTAATAG: 528 a.u.
GAACCTAACTACGAGCACGTACGTCTAGAATTCTAG: 545 a.u.
GAATTCACATTGGCTGACGTCGCGCTTTCCTTATAG: 485 a.u.
CTACGCTTGTTTAAACATGTGCTAGGTAAGCGATTC: 871 a.u.
GAAATAACATTACCATACGTGATCTTATTAAACTAG: 710 a.u.
CTATTTTGCGGGCATCACGTTCGTCGTGACATATTC: 995 a.u.
GAATATTCTAAGCCGCACGTAGTAACAAATCTTTAG: 519 a.u.
GAACTTGTCTCAGGTCACACCATTCACGATTCCTAG: 735 a.u.
CTATTTCTGCTCCATCGCGTGCTCGAGACTATATTC: 668 a.u.

For quick reference, copied from above (study 4):
CTAAGGAAGAAGCAACGCACGCATGGAAAACACTTC: 541 a.u.
GAATCTTCCATTAGCAGCATGATCTTGTGTAGATAG: 582 a.u.
CTATAGATTTTGGAGCAACTGATGTGTGTGAGTTTC: 516 a.u.
CTATGGAACCACTATCATCAGAATTATCGCCAATTC: 509 a.u.
GAAGAACTATTATTTCATCATATGAAAGATTAATAG: 528 a.u.
GAACCTAACTACGAGCACGTACGTCTAGAATTCTAG: 545 a.u.
GAATTCACATTGGCTGACGTCGCGCTTTCCTTATAG: 485 a.u.
CTACGCTTGTTTAAACATGTGCTAGGTAAGCGATTC: 871 a.u.
GAAATAACATTACCATACGTGATCTTATTAAACTAG: 710 a.u.
CTATTTTGCGGGCATCACGTTCGTCGTGACATATTC: 995 a.u.
GAATATTCTAAGCCGCACGTAGTAACAAATCTTTAG: 519 a.u.
GAACTTGTCTCAGGTCACACCATTCACGATTCCTAG: 735 a.u.
CTATTTCTGCTCCATCGCGTGCTCGAGACTATATTC: 668 a.u.
